Experimental data pooled from the literature.
Each numbered part is a random draw from the data of one study; scales do not carry over between parts. Several values in a cell are separate wells, animals, samples, runs or records.
UniProt Q07002, sequence (whole entry, looked up): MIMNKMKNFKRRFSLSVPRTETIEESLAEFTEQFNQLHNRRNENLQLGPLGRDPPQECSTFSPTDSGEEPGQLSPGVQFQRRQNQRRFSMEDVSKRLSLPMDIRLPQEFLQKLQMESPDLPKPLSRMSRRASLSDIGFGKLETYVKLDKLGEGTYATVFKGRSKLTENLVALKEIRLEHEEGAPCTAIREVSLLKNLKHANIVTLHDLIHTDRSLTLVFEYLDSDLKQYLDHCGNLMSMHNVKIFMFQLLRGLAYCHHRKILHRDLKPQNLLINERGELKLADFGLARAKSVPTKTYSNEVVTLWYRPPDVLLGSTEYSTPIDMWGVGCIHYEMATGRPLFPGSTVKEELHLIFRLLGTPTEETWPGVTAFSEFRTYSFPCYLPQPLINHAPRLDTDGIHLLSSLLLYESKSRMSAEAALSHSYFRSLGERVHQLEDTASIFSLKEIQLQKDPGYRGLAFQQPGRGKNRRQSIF
UniProt Q15349, sequence (whole entry, looked up): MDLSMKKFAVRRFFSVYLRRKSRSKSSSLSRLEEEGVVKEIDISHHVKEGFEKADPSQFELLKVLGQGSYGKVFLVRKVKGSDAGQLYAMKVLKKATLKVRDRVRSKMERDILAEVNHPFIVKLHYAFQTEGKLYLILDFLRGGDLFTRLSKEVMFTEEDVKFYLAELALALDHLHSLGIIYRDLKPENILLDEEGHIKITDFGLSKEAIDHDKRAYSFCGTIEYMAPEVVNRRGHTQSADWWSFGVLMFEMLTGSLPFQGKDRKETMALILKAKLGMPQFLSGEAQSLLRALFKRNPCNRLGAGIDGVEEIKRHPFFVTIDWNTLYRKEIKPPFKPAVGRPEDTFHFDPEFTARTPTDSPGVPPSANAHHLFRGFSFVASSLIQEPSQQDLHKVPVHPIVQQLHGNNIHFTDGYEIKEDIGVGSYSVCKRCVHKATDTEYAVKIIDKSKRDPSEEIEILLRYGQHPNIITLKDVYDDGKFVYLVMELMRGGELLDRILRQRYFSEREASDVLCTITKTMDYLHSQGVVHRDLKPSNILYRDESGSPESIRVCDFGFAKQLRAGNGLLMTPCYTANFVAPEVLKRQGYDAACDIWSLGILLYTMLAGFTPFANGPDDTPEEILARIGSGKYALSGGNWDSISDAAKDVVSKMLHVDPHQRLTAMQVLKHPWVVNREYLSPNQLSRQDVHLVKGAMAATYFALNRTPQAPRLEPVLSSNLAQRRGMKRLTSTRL
UniProt Q9UL54, sequence (whole entry, looked up): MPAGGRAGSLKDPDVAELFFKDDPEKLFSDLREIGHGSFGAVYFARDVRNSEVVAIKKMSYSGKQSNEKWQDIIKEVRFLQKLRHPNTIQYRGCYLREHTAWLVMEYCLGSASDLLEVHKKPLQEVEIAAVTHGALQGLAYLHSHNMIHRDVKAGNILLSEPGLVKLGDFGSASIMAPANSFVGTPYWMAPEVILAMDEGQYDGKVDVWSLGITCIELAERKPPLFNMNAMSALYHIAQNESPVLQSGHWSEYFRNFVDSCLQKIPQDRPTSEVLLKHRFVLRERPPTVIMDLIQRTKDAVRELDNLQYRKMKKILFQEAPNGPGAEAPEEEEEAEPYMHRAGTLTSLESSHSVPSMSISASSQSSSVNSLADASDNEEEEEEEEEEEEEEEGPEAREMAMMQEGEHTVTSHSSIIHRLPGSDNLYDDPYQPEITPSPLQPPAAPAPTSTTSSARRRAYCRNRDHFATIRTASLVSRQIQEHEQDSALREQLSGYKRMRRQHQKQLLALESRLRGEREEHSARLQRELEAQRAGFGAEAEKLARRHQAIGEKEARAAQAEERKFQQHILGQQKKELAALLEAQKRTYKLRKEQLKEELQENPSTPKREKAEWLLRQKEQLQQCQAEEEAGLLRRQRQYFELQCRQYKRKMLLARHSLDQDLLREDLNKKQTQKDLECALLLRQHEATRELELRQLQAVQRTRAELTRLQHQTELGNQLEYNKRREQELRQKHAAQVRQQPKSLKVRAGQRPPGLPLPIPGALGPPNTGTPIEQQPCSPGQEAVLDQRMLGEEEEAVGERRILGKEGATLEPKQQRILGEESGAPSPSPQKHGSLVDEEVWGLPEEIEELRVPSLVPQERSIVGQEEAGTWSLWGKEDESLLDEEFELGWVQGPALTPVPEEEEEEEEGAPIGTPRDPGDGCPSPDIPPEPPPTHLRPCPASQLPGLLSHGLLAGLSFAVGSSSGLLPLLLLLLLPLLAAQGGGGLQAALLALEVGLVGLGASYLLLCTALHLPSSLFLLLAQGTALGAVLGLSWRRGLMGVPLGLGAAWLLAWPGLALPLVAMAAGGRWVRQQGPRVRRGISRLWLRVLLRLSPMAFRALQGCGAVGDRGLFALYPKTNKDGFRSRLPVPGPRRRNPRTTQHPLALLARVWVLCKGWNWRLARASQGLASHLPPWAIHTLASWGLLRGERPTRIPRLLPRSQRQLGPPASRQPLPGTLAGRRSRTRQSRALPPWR
UniProt Q9HC98, sequence (whole entry, looked up): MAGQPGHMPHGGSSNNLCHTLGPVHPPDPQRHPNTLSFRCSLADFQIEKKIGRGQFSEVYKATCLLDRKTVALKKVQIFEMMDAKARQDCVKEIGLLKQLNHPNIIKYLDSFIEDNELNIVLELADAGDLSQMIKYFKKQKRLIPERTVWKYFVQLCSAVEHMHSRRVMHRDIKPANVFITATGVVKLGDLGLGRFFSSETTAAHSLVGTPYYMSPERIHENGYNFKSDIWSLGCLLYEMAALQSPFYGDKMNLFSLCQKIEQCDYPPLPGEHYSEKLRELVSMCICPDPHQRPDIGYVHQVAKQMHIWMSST
UniProt Q12866, sequence (whole entry, looked up): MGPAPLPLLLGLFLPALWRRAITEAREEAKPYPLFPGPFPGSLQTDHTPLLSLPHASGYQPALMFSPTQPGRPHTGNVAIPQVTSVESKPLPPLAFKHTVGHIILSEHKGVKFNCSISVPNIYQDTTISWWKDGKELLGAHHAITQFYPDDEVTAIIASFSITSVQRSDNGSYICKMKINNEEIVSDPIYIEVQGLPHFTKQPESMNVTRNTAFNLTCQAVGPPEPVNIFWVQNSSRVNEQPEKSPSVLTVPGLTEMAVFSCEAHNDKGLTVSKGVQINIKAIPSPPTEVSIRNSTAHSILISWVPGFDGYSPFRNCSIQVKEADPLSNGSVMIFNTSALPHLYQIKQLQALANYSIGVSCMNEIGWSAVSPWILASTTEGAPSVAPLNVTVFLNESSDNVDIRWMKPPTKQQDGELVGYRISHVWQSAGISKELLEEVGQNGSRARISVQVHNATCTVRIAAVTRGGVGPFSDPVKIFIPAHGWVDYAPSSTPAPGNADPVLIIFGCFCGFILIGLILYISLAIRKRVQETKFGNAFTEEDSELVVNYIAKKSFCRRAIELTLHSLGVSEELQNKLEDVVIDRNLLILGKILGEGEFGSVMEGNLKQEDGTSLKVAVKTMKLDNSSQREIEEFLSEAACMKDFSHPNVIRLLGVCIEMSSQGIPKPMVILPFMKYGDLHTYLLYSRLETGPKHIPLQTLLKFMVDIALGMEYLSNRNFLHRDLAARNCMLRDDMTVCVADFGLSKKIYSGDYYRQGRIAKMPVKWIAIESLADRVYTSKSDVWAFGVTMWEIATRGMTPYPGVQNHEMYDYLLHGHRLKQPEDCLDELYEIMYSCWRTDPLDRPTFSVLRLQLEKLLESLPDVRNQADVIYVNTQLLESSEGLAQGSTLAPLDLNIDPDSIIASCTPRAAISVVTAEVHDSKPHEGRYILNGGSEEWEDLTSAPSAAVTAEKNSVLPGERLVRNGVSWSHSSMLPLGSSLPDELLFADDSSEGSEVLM
UniProt P52333, sequence (whole entry, looked up): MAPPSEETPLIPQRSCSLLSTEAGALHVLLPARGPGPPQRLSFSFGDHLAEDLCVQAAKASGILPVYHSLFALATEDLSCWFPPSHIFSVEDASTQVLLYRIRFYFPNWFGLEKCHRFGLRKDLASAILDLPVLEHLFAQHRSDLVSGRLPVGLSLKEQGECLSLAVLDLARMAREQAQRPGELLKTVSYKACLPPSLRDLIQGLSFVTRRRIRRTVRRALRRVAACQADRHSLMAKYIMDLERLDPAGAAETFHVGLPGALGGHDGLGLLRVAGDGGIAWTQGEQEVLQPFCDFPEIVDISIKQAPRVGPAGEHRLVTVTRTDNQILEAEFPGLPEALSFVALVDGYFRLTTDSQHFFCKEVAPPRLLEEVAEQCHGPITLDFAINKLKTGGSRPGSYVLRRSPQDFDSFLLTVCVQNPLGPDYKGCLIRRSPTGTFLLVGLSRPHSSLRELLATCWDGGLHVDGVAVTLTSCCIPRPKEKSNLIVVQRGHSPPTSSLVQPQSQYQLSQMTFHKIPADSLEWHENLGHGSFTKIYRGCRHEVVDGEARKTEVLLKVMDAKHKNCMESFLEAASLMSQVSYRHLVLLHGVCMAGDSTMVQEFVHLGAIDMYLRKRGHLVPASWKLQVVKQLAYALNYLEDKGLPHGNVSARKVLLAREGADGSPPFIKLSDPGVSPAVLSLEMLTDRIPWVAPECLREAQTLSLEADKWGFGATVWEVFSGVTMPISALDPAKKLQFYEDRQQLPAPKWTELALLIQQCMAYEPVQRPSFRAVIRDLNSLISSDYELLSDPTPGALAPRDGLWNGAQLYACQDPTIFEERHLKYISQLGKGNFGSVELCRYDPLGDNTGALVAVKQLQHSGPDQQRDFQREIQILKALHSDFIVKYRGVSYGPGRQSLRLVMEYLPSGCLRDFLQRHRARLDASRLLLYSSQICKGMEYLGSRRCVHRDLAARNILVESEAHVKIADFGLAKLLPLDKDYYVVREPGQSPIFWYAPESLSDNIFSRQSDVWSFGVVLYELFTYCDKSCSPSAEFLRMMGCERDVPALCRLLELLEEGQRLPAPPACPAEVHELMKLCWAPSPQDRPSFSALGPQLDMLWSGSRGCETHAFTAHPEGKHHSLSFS

Set 1 — technique: competition with immobilised ligand; concentration: 1 µM
Structure (SMILES): O=C(N1CCS(=O)(=O)CC1)N1C[C@H](c2ccc(OC(F)(F)F)cc2)C[C@H](c2nc(C3CC3)no2)C1
target | read-out | remaining binding [%]
PDPK1 (Homo sapiens, UniProt O15530) | cell-free assay | 94
CILK1 (Homo sapiens, UniProt Q9UPZ9) | binding | 100
CDK18 (Homo sapiens, UniProt Q07002) | cell-free assay | 0

Set 2 — sample: plasma; route: oral
SMILES: COc1ccc(-c2c(Nc3ccccn3)[nH]c3c(C4=CCCCC4)c(-c4ccccc4)nn3c2=O)cc1
technique | host | dose | time | notes | plasma concentration, geometric mean
– | cancer patients | 200 mg | 1 h post-dose | single dose | 236 ng/mL
– | cancer patients | 100 mg | 6 h post-dose | single dose | 947 ng/mL
– | cancer patients | 150 mg | 2 h post-dose | single dose | 1160 ng/mL
– | human patients | 100 mg once daily | 4 h | cycle 1 | 3070 ng/mL
LC-MS/MS | human | 200 mg twice daily | 3 h | single dose | 1320 ng/mL

Set 3 — cell line: mouse MPNST tumor cells; technique: high-content nuclear imaging; item: cell number; concentration: 10 µM; time: 12 h; notes: mean of 2 replicates; reference: plate mean; reading: higher = more cells
Compound | nuclei count
Cc1cc(=O)n(C)c2cc(N3C(=O)CC[C@H](NS(=O)(=O)CC(C)C)[C@H]3c3ccc(Cl)cc3)ccc12 | 2.19 z-score and 1.16 z-score
Nc1ncn([C@H]2C[C@H](O)[C@@H](CO)O2)c(=O)n1 | 0.0764 z-score
COc1ccc(Cl)c(Nc2ncnc3cc(OCC4CCN(C)CC4)c(OC)cc23)c1 | -1.51 z-score

Set 4 — read-out: enzyme activity; mode: inhibitor; concentration: 0.5 µM; reference: control
SMILES: Cn1c2ccccc2c2c3c(c4c5ccccc5n(CCC#N)c4c21)CNC3=O
target | remaining activity [%]
ACVR1B (Homo sapiens, UniProt P36896) | 115
WEE1 (Homo sapiens, UniProt P30291) | 85.4
TAOK2 (Homo sapiens, UniProt Q9UL54) | 13.3
MAPK3 (Homo sapiens, UniProt P27361) | 72.5
GRK7 (Homo sapiens, UniProt Q8WTQ7) | 37.9
MAP3K5 (Homo sapiens, UniProt Q99683) | 49.8
RPS6KA2 (Homo sapiens, UniProt Q15349) | 0.299
JAK3 (Homo sapiens, UniProt P52333) | 2.44
MERTK (Homo sapiens, UniProt Q12866) | 59.9
NEK6 (Homo sapiens, UniProt Q9HC98) | 103

Further values, each from its own experiment
Structure (SMILES) | technique | host | dose | notes | measurement | value
CC(C)n1cnc(-c2ccc(F)cc2)c1-c1ncc(C(=O)Nc2ccc(N3CCN(C)CC3)cc2)[nH]1 | phase 2a trial | idiopathic pulmonary fibrosis patients | 30 mg once daily | adverse event grade 3 | patients with abdominal discomfort | 0%
